{"data": "Results from different studies", "note": "Numbered parts are unrelated; each lists some results of a single study. Positions count from the first letter of the parent shown."}
{"data": "Study 1", "target": "Interferon regulatory factor 7, full length, phosphomimetic (IRF7, Homo sapiens, UniProt Q92985, residues 1-503, S471D/S472D/S475D/S476D/S477D/S483D/S484D/S487D)", "method": "protein-binding microarray", "molecule type": "double-stranded DNA, one strand shown", "matrix": "in vitro", "tested at": "2200 nM top", "setting": "60-bp whole probe", "added": "salmon DNA 0.4 mg/ml", "reference": "random background probes", "direction": "higher = stronger binding", "constant ends, left off below": "GCCTAGCAC … GTGCTAGGTCTTGATTCGCTTGACGCTGCTG", "chain of UniProt Q92985 (whole entry, unmodified, looked up)": "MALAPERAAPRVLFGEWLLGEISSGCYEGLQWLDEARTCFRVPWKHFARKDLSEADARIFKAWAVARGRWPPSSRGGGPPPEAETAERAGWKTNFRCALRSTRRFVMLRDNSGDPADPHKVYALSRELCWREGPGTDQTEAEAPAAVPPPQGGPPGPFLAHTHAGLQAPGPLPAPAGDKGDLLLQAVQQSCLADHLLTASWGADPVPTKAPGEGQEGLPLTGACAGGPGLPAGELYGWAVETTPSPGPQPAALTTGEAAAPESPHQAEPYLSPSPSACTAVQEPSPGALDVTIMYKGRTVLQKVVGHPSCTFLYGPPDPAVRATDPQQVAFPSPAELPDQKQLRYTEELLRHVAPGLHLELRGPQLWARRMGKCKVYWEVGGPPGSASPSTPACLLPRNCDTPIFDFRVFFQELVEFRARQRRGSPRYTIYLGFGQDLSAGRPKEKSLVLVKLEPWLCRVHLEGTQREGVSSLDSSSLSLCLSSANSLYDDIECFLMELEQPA"}
{"Strand": "GACGGTTACGGACTGGGGAC", "fitted relative affinity [z-score]": -0.525}
{"Strand": "TCAAGTTTTCATTTTCTACT", "fitted relative affinity [z-score]": 4.59}
{"Strand": "TTAAGTCTCGGACTGGGTTA", "fitted relative affinity [z-score]": -0.225}
{"Strand": "TTAGGTTTCCTTATCGTTTA", "fitted relative affinity [z-score]": 1.85}
{"Strand": "TGTCTTTTCACTTTCTTTAA", "fitted relative affinity [z-score]": 4.03}
{"Strand": "GAAAACAAAGAAAATACAAA", "fitted relative affinity [z-score]": -0.273}
{"Strand": "TTAGATTTCCTACTGCTTTA", "fitted relative affinity [z-score]": 1.12}
{"Strand": "TCATTTTTTTTCCTAATACT", "fitted relative affinity [z-score]": 1.96}
{"Strand": "CACCAGCGAGGGCCCGGGAG", "fitted relative affinity [z-score]": -0.659}
{"data": "Study 2", "target": "ABI1, truncated, D143A, DHFR fusion (Arabidopsis thaliana)", "method": "DHFR PCA, deep sequencing", "matrix": "yeast", "setting": "methotrexate growth selection, single substitutions", "added": "(+)-ABA 0.032 µM", "reference": "wild-type fitted maximum", "direction": "higher = stronger binding", "parent": "PYL1, truncated, DHFR fusion (Arabidopsis thaliana); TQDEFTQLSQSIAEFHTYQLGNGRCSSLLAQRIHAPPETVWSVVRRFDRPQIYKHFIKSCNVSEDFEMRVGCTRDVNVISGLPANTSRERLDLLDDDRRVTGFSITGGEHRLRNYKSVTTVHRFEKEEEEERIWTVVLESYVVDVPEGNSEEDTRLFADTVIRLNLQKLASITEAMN; partner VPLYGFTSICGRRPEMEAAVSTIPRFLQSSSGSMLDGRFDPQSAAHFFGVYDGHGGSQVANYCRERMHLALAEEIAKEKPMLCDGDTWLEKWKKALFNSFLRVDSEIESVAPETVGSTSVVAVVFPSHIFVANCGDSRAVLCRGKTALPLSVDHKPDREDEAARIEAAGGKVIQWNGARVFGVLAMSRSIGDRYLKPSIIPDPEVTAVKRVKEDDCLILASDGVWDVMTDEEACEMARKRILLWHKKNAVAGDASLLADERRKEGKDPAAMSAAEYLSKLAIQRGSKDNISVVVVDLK"}
{"Variant": "T73W", "relative binding score": "15.2%"}
{"Variant": "R46G", "relative binding score": "-0.809%"}
{"Variant": "E89C", "relative binding score": "-9.28%"}
{"Variant": "V142R", "relative binding score": "-1.33%"}
{"Variant": "K54S", "relative binding score": "3.07%"}
{"data": "Study 3", "target": "Fragile X messenger ribonucleoprotein 1, C-terminal low-complexity region (Fmr1, Mus musculus, UniProt P35922)", "method": "RNA Bind-n-Seq", "molecule type": "RNA", "matrix": "in vitro", "tested at": "200 nM", "setting": "whole 134-nt RNA, ends assumed", "added": "150 mM LiCl", "reference": "input library", "direction": "higher = stronger binding", "each molecule": "7-deaza-guanosine replaces G"}
{"Strand": "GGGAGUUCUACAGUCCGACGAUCUCAAGUCCUGUGCUACACAUCGUAUGUACCGAAUCGGGGAAGGAAGGGGAAGGGAAAGUAUUAUGUUACGCCGUUCGGAUCUGCACUUCCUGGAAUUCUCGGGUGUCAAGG", "log2 enrichment": -0.678}
{"Strand": "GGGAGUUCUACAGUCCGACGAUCGUCCUGUGCUACACAUCGUAUGUACCGAAUCGGGGAAAAAGGGGAAAAAGGAAAAAGGGAAAGUAUUAUGUUACGCCGUUCGGAUCUGCAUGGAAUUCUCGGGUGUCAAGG", "log2 enrichment": 0.568}
{"Strand": "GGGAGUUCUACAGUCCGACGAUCUCCUGUGCUACACAUCGUAUGUACCGAAUCAAAUUUUUUUAAAUUUUUUUAAACCCAAAAAAGUAUUAUGUUACGCCGUUCGGAUCUGCAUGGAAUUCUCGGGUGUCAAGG", "log2 enrichment": -0.455}
{"Strand": "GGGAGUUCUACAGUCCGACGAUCGCAGGAAGUAAAAACAAAUGGAAAUGCUUCGGAUAGUGGCAGGGGUGCGGGUUGCUAAGGAAAGGGUGGGAUGGGAGUGGGUAAAGAGUUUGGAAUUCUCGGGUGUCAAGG", "log2 enrichment": 1.55}
{"Strand": "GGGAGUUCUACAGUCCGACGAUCGUCCUGUGCUACACAUCGUAUGUACCGAAUCGGUUUUUGGGUUUUUGGGGUUUUUGGGAAAGUAUUAUGUUACGCCGUUCGGAUCUGCACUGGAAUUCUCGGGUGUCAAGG", "log2 enrichment": -0.69}
{"Strand": "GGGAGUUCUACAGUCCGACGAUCUGGGAGGUGGAUUUCGUUUAUUUUUUUAGCUCAUUUCCAGGGGUGGGAAUUUUUUUUUAAUAUGUGUCAUGAAUAAAGUUGUUUUUGAAAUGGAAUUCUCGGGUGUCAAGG", "log2 enrichment": 0.516}
{"Strand": "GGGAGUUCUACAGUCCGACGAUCCACAGACAACACGAAACCACACAGACACAGAGGGAAGGGGUUGGGAUGGGGACAGGGUGCACAGCAGGGCGGGGUAGGACCCCAGCCCCUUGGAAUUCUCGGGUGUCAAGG", "log2 enrichment": 1.05}
{"Strand": "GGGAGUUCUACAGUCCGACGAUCGUCCUGUGCUACACAUCGUAUGUACCGAAUCGGAAAAAGGGGAAAAAGGGAAAAAGGGAAAGUAUUAUGUUACGCCGUUCGGAUCUGCACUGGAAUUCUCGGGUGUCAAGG", "log2 enrichment": 0.258}
{"Strand": "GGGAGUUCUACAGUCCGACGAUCCAAGUCCUGUGCUACACAUCGUAUGUACCGAAUCGGGAAAGGGGAAAGGGGAAAGGAAAGUAUUAUGUUACGCCGUUCGGAUCUGCACUUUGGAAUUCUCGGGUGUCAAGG", "log2 enrichment": -1.09}
{"Strand": "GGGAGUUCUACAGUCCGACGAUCUGGGAGGUGGGUUUUGUUUAUUUUUUUAGCUCAUUUCCAGGGGUGGGAAUUUUUUUUUAAUAUGUGUCAUGAAUAAAGUUGUUUUUGAAAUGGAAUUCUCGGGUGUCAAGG", "log2 enrichment": -1.38}
{"data": "Mixed results"}
{"Molecule": "PhoQ, residues 284 288 289 292 302 303 ASTSDA", "target": "PhoP, residues 12 14 15 18 19 NQGLL (Escherichia coli, UniProt P23836)", "assay": "Sort-seq, refers to: YFP reporter", "system": "E. coli", "conditions": "PhoQ-PhoP variant library, added: 10 µM Mg2+", "scale": "reference: high Mg2+ state, higher = stronger signaling", "quantity": "fold induction", "result": 8.45}
{"note": "A few entries again (study 1):"}
{"Strand": "TCATTTTTTTTCCTAATACT", "fitted relative affinity [z-score]": 1.96}
{"Strand": "TTAAGTCTCGGACTGGGTTA", "fitted relative affinity [z-score]": -0.225}
{"Strand": "TTAGATTTCCTACTGCTTTA", "fitted relative affinity [z-score]": 1.12}
